{"data": "Assay results collected from several papers", "note": "Numbered parts are unrelated; each lists some results of a single study. Several values in a cell are separate wells, animals, samples, runs or records."}
{"data": "Block 1", "cell line": "HaCaT", "concentration": "100 µM", "time": "18 h"}
{"SMILES": "CC1=C(C/C=C(\\C)CCC[C@H](C)CCC[C@H](C)CCCC(C)C)C(=O)c2ccccc2C1=O", "viability": "90.6%"}
{"SMILES": "O=C(NC1CCN(CCCCC2(C(=O)NCC(F)(F)F)c3ccccc3-c3ccccc32)CC1)c1ccccc1-c1ccc(C(F)(F)F)cc1", "viability": "19.7%"}
{"SMILES": "CO[C@H]1O[C@@H]2O[C@@]3(C)CC[C@H]4[C@H](C)CC[C@@H]([C@H]1C)[C@@]24OO3", "viability": "86%"}
{"SMILES": "O=S(=O)(O)CCSSCCS(=O)(=O)O", "viability": "95.7%"}
{"SMILES": "O=c1[nH]c(=O)n([C@H]2C[C@H](O)[C@@H](CO)O2)cc1F", "viability": "45.5%"}
{"SMILES": "Cc1cncc(CN2CCC(=C3c4ccc(Cl)cc4CCc4cccnc43)CC2)c1", "viability": "17.2%"}
{"SMILES": "CCNC(=O)[C@@H]1CCCN1C(=O)[C@H](CCCNC(=N)N)NC(=O)[C@H](CC(C)C)NC(=O)[C@@H](C)NC(=O)[C@H](Cc1ccc(O)cc1)NC(=O)[C@H](CO)NC(=O)[C@H](Cc1c[nH]c2ccccc12)NC(=O)[C@H](Cc1c[nH]cn1)NC(=O)[C@@H]1CCC(=O)N1", "viability": "117%"}
{"SMILES": "CN1C(=O)OC(C)(C)C1=O", "viability": "108%"}
{"SMILES": "N#C/C(=C1/SC[C@@H](c2ccc(Cl)cc2Cl)S1)n1ccnc1", "viability": "42.8%"}
{"SMILES": "CCN(CC)CCNC(=O)c1c(C)[nH]c(/C=C2\\C(=O)Nc3ccc(F)cc32)c1C", "viability": "50.9% and 24.6%"}
{"SMILES": "CO/N=C1\\C[C@]2(C[C@@H]3C[C@@H](C/C=C(\\C)C[C@@H](C)/C=C/C=C4\\CO[C@@H]5[C@H](O)C(C)=C[C@@H](C(=O)O3)[C@]45O)O2)O[C@H](/C(C)=C/C(C)C)[C@H]1C", "viability": "19.2%"}
{"SMILES": "COc1ccnc(C[S+]([O-])c2nc3cc(-n4cccc4)ccc3[nH]2)c1C (stereo not drawn)", "viability": "67.1%"}
{"data": "Block 2", "Structure (SMILES)": "O=C(NCc1ccccc1)c1ccc(S(=O)(=O)NCc2ccccc2)cc1", "concentration": "1 µM"}
{"cell line": "sample B colorectal tumour organoid", "conditions": "replicate 1", "how to read": "reference: DMSO", "viability": "106%"}
{"cell line": "sample C colorectal tumour organoid", "conditions": "replicate 2", "how to read": "reference: DMSO", "viability": "101%"}
{"cell line": "sample I colorectal tumour organoid", "conditions": "replicate 2", "how to read": "reference: DMSO", "viability": "102%"}
{"cell line": "sample D normal epithelium organoids", "test system": "human patient-derived organoids", "how to read": "reference: DMSO control", "viability": "83.1% and 105%"}
{"cell line": "sample I colorectal tumour organoid", "conditions": "replicate 1", "how to read": "reference: DMSO", "viability": "82.8%"}
{"cell line": "colorectal tumour organoids", "how to read": "reference: DMSO", "viability": "91.3%"}
{"cell line": "sample C colorectal tumour organoid", "conditions": "replicate 1", "how to read": "reference: DMSO", "viability": "89.5%"}
{"cell line": "sample BA colorectal tumour organoid", "how to read": "reference: DMSO", "viability": "72.4%"}
{"cell line": "sample B colorectal tumour organoid", "conditions": "replicate 2", "how to read": "reference: DMSO", "viability": "86%"}
{"data": "Block 3", "SMILES": "CC(C)n1cnc(-c2ccc(F)cc2)c1-c1ncc(C(=O)Nc2ccc(N3CCN(C)CC3)cc2)[nH]1", "method": "phase 2a trial", "host": "idiopathic pulmonary fibrosis patients", "dose": "all dose arms pooled"}
{"conditions": "grade 4", "patients with eye swelling [%]": 0}
{"conditions": "grade 3", "patients with eye swelling [%]": 0}
{"conditions": "grade 2", "patients with eye swelling [%]": 0}
{"conditions": "grade 5", "patients with eye swelling [%]": 0}
{"data": "Block 4", "host": "human", "medium": "microsomes or S9", "concentration": "2 µM", "time": "0.5 h"}
{"Compound": "Cc1ccc(C2=C(c3ccccc3)c3cc(OCCN4CCN(S(C)(=O)=O)CC4)ccc3C2=O)cc1", "remaining compound": "> 100%"}
{"Compound": "CCCc1nc2c(c(C)c(C)n2Cc2ccncc2)c(N)c1CC", "remaining compound": "68.6%"}
{"Compound": "Cc1ccccc1-c1nc2ccccc2cc1Cn1nc(-c2ccncc2)c2cnc(N)nc21", "remaining compound": "28.2%"}
{"Compound": "COc1ccc(N2C(=O)CC(NNC(=O)c3cc(C(F)(F)F)n[nH]3)C2=O)cc1 (stereo not drawn)", "remaining compound": "29.2%"}
{"Compound": "Cc1ccc(C(C)C)c(OCCNS(C)(=O)=O)c1", "remaining compound": "60%"}
{"Compound": "CCS(=O)(=O)Nc1ccc(C(=O)OC(C)C)cc1", "remaining compound": "83.9%"}
{"Compound": "CCc1ccc(-c2cn(Cc3ncc[nH]3)nn2)nc1", "remaining compound": "55.8%"}
{"Compound": "COc1ccc(CCC(=O)N[C@@H]2CN(S(C)(=O)=O)C[C@H]2CN(C)C)cc1", "remaining compound": "> 99.9%"}
